{"data": "Measurements from different studies", "ALB": "Albumin (ALB, Bos taurus, UniProt P02769)", "note": "Lines come from different studies, so protocols differ. “And” joins repeats or separate records; there may be more than shown. ± gives the spread as reported."}
{"SMILES": "O=P(O)(O)O[C@@H]1[C@@H](O)[C@@H](O[C@@H]2COC[C@@H]2OP(=O)(O)O)O[C@H](CO)[C@H]1OP(=O)(O)O", "target": "Inositol 1,4,5-trisphosphate-gated calcium channel ITPR1, N-terminal region (Itpr1, Rattus norvegicus, UniProt P29994, del318-332/R504Q)", "assay": "[3H]IP3 competition binding", "system": "N-terminal fragment", "conditions": "Tris-EDTA medium, unit not given", "how to read": "relative to: R504Q minus wild type", "quantity": "delta pKd", "result": "1.63 ± 0.1"}
{"SMILES": "CCCCCCCCCCCCCCCC(=O)NC[C@H](NC(=O)CNC(=O)CCNc1ccc([N+](=O)[O-])c2nonc12)C(=O)N[C@H](C(=O)N[C@@H](CCCCN)C(=O)N[C@H](C(=O)N[C@@H](CCCCN)C(=O)N[C@@H](CCCCN)C(=O)O)[C@@H](C)CC)C(C)C", "target": "Palmitoyl-protein thioesterase 1 (Homo sapiens, UniProt P50897)", "assay": "chaperone", "system": "normal lymphoblasts", "conditions": "10 to 20 µM, up to 96 h", "quantity": "enzyme activity", "result": "no effect"}
{"SMILES": "Cc1cc(=O)oc2cc(NC(=O)CCCCCCC(=O)NO)ccc12", "target": "HDAC8 (Homo sapiens, UniProt Q9BY41)", "assay": "ITC", "system": "Tris-HCl buffer", "conditions": "pH 7.5, 25 °C", "quantity": "TΔS", "result": "3 ± 0.3 kcal/mol"}
{"SMILES": "[3H]C([3H])([3H])Nc1ccc(-c2nc3ccc(O)cc3o2)cn1", "target": "Amyloid-beta precursor protein, Aβ40 fibrils (APP, Homo sapiens, UniProt P05067)", "system": "Aβ(1-40) fibrils", "quantity": "dissociation half-life second phase", "result": "8.9 ± 1.2 min"}
{"SMILES": "CNc1ccccc1C(=O)O[C@H]1C[C@H](n2cnc3c(N)ncnc32)O[C@@H]1COP(=O)(O)OP(=O)(O)O", "target": "Unconventional myosin-Va (Gallus gallus, UniProt Q02440, D297C/G292C/I296C/S293C/V295G)", "assay": "stopped-flow FRET", "conditions": "15 °C, with: MgCl2 10 mM", "quantity": "pocket forward rate constant", "result": "0.4 ± 0.08 s⁻¹"}
{"SMILES": "Nc1ncnc2c1ncn2C1OC(COP(=O)(O)OP(=O)(O)OCC2OC(O)C(O)C2O)C(O)C1O (centres unmarked)", "target": "TRPM2 (Nematostella vectensis, UniProt A7T1N0)", "assay": "activator, inside-out patch clamp", "system": "Xenopus oocytes, full-length TRPM2", "conditions": "with: 125 µM Ca2+", "quantity": "Hill coefficient", "result": "1.4 ± 0.1"}
{"SMILES": "COc1ccc(CNc2nc3c(c(=O)[nH]2)[n+](C)cn3C2OC(COP(=O)(O)OP(=O)([O-])OP(=O)(O)OCC3OC(n4cnc5c(=O)[nH]c(N)nc54)C(O)C3O)C(O)C2O)cc1 (centres unmarked)", "target": "NUDT16 (Homo sapiens, UniProt Q96DE0)", "assay": "decapping, substrate", "system": "capped RNA transcribed by SP6 polymerase", "conditions": "concentration not given, 30 min", "quantity": "cap hydrolysis", "result": "26.1%"}
{"SMILES": "CC(C)(C)CCN1C[C@@H]2[C@@H](CNC(=O)c3cc(Cl)cc(Cl)c3)[C@@H]2C1.Cl", "target": "Voltage-dependent L-type calcium channel subunit alpha-1F (Homo sapiens, UniProt O60840)", "assay": "calcium current, whole-cell patch clamp", "system": "HEK-293T cells", "conditions": "5 µM, holding potential -90 mV, with: β2 and α2δ subunits", "quantity": "activation slope factor k", "result": "8.36 ± 0.28 mV"}
{"SMILES": "COC(=O)c1cnc(-c2cnccn2)cc1C(=O)OC.COC(=O)c1cnc(-c2cnccn2)cc1C(=O)OC.F[P-](F)(F)(F)(F)F.[Ag+]", "target": "ALB", "assay": "fluorescence quenching", "quantity": "quenching rate constant", "result": "5.41e+13 M⁻¹ s⁻¹"}
{"SMILES": "CC(=O)[O-].O.O.O.O.[Co+2].[O-]c1ccc(Br)cc1C=NCCN1CCOCC1", "target": "ALB", "assay": "absorption titration", "conditions": "25 °C, blue shift of BSA band", "how to read": "relative to: bound over free", "quantity": "wavelength shift", "result": "7 nm"}
{"SMILES": "C[n+]1cn([C@@H]2O[C@H](COP(=O)(O)OP(=O)([O-])OP(=O)(O)O)[C@@H](O)[C@H]2O)c2nc(N)nc(O)c21", "target": "DCPS (Homo sapiens, UniProt Q96C86)", "assay": "substrate, HPLC", "conditions": "0.04 mM, 60 min, 37 °C", "quantity": "hydrolysis", "result": "43.9% and 44%"}
{"SMILES": "CCCCCCCCCCCCCC[C@@H](O)[C@@H](O)[C@H](CO[C@H]1O[C@H](CO)[C@H](O)[C@H](O)[C@H]1O)NC(=O)CCCCCCCCc1ccccc1", "target": "Cd1d1 (Mus musculus, UniProt P11609)", "assay": "competitive binding", "how to read": "relative to: α-GalCer, higher = stronger binding", "quantity": "binding affinity ratio", "result": "~1 orders of magnitude"}
{"SMILES": "CC(=O)N[C@@H](CC(=O)O)C(=O)N[C@H](C(=O)N[C@@H](CCCCN)C(=O)N[C@@H](CC(N)=O)C(=O)N[C@@H](CCN1C(=O)c2ccc(N(C)C)cc2C1=O)C(=O)N[C@@H](CCCCN)C(=O)N[C@@H](CCC(N)=O)C(=O)N[C@H](C(=O)N[C@@H](CO)C(=O)N[C@H](C(=O)O)C(C)C)[C@@H](C)O)[C@@H](C)O", "target": "Disks large homolog 4, PDZ1-2 domains (Homo sapiens, UniProt P78352)", "assay": "PDZ domain binding, fluorescence emission intensity", "system": "PSD-95 PDZ1-2 tandem construct", "conditions": "4-DMAP-Dab at position -5", "how to read": "relative to: probe without PDZ domain", "quantity": "relative fluorescence increase", "result": 4.5}
{"SMILES": "COc1cc(N2CCN(C(=O)C3CCCN3)CC2)ccc1Nc1ncc(Cl)c(Nc2ccccc2P(C)(C)=O)n1 (centres unmarked)", "target": "ALK tyrosine kinase receptor/Echinoderm microtubule-associated protein-like 4 (Homo sapiens, UniProt Q9HC35+Q9UM73)", "assay": "degrader, immunoblot", "system": "Ba/F3 EML4-ALK", "conditions": "1 µM", "quantity": "onset of degradation", "result": "0.5 h"}
{"SMILES": "CCCCCCCCCCN1C(=O)/C(=N\\NC(N)=S)c2cc(C)ccc21", "target": "mrcB (Escherichia coli K-12, UniProt P02919)", "assay": "transglycosylation activity", "conditions": "50 µM, with: dansyl-lipid II", "quantity": "remaining activity", "result": "60%"}
{"SMILES": "COC(=O)CCC[C@H](O)[C@H](O)/C=C/C=C/C=C\\C=C\\[C@H](O)COc1ccc(F)cc1", "target": "FPR2 (Homo sapiens, UniProt P25090)", "system": "HEK293 transfected", "conditions": "with: [3H]LXA4", "how to read": "relative to: 15-deoxy-LXA4", "quantity": "relative potency", "result": "> 1000 fold"}
{"SMILES": "COc1ccc(C(=O)c2c(C(=O)NCCCN(C)C)oc3ccc(Cl)cc3c2=O)cc1OC", "target": "GHSR (Homo sapiens, UniProt Q92847, L149G)", "assay": "β-arrestin-2 recruitment, BRET", "system": "HEK293T", "how to read": "relative to: GHSR1a L149G over wild type", "quantity": "EC50 ratio", "result": "~5 fold"}
{"note": "Excerpt of the above:"}
{"SMILES": "C[n+]1cn([C@@H]2O[C@H](COP(=O)(O)OP(=O)([O-])OP(=O)(O)O)[C@@H](O)[C@H]2O)c2nc(N)nc(O)c21", "target": "DCPS (Homo sapiens, UniProt Q96C86)", "assay": "substrate, HPLC", "conditions": "0.04 mM, 60 min, 37 °C", "quantity": "hydrolysis", "result": "43.9% and 44%"}
